{"data": "Measurements from different studies", "note": "A part holds a random share of what one study measured."}
{"data": "Set 1", "target": "Interferon regulatory factor 3, full length, phosphomimetic (IRF3, Homo sapiens, UniProt Q14653, residues 1-427, S386D/S396D/S398D/S402D/T404D/S405D)", "technique": "protein-binding microarray", "molecule type": "double-stranded DNA, one strand shown", "sample": "in vitro", "tested at": "2540 nM top", "notes": "60-bp whole probe", "together with": "salmon DNA 0.4 mg/ml", "baseline": "random background probes", "direction": "higher = stronger binding", "shared flanks, not repeated": "GCCTAGCAC … GTCTTGATTCGCTTGACGCTGCTG", "chain of UniProt Q14653 (whole entry, unmodified, looked up)": "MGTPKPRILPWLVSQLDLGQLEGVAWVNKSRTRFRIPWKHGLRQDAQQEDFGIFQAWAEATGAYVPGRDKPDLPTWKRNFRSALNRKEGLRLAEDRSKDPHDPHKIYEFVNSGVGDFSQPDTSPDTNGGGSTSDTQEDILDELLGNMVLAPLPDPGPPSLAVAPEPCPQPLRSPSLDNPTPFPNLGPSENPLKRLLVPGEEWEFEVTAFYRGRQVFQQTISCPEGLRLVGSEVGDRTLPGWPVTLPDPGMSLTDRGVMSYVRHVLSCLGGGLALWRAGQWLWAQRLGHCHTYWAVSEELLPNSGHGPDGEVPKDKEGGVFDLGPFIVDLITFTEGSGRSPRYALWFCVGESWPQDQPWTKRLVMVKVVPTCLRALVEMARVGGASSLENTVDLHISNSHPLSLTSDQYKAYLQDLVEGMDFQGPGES"}
{"Strand": "TCACATTTAGAAAATGGAACTGTGCTA", "fitted relative affinity [z-score]": 1.06}
{"Strand": "ACCACTCTTGCTTTTTAGATGTGCTAG", "fitted relative affinity [z-score]": 1.51}
{"Strand": "GACGGTATCGGACTGGGGTCGTGCTAG", "fitted relative affinity [z-score]": 1.61}
{"Strand": "TTCGATATCGGGACTGGATTAGTGCTA", "fitted relative affinity [z-score]": 0.372}
{"Strand": "GACGGATTCCTACTGCTGACGTGCTAG", "fitted relative affinity [z-score]": 1.59}
{"data": "Set 2", "target": "PABPC1L2, full length, GST fusion (mouse, UniProt A0ABA7IW68)", "technique": "RNAcompete", "molecule type": "RNA", "sample": "in vitro", "tested at": "20 nM", "notes": "7-mer, probes averaged, single round", "baseline": "mean of 7-mers", "direction": "higher = stronger binding", "Construct (chain)": "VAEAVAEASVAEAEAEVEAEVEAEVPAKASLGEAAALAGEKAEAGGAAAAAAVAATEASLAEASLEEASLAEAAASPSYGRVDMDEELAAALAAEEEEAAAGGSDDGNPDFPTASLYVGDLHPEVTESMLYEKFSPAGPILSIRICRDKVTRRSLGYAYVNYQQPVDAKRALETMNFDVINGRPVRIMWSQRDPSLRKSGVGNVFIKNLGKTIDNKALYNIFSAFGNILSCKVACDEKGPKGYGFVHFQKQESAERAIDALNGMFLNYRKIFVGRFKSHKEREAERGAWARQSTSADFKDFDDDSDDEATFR"}
{"Strand": "GCUUGGA", "7-mer Z-score": 0.0134}
{"Strand": "ACCCAAA", "7-mer Z-score": 0.829}
{"Strand": "UAUGCUU", "7-mer Z-score": -0.335}
{"data": "Set 3", "target": "Ras GTPase-activating protein-binding protein 1, C-terminal RGG region (G3BP1, Homo sapiens, UniProt Q13283)", "technique": "RNA Bind-n-Seq", "molecule type": "RNA", "sample": "in vitro", "tested at": "1 µM", "notes": "whole 134-nt RNA, ends assumed", "together with": "150 mM KCl", "baseline": "input library", "direction": "higher = stronger binding", "chain of UniProt Q13283 (whole entry, looked up)": "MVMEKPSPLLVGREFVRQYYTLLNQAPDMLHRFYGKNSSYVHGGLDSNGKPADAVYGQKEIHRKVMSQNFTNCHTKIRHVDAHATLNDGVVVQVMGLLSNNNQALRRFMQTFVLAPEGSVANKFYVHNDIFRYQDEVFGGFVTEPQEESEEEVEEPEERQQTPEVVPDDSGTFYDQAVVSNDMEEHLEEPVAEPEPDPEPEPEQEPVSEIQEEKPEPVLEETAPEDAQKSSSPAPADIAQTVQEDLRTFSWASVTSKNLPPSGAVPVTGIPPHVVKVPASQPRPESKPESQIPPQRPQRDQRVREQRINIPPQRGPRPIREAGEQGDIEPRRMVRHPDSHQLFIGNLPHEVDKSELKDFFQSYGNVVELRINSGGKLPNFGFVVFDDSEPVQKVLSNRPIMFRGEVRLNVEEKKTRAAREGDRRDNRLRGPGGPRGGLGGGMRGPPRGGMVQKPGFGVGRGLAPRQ"}
{"Strand": "GGGAGUUCUACAGUCCGACGAUCCACAGACAACACGCAUCCACACAGACACAGAGGGAAGGGGUUGGGAUGGGGACAGGGUGCACAGCAGGGCGGGGUAGGACCCCAGCCCCUUGGAAUUCUCGGGUGUCAAGG", "log2 enrichment": -0.301}
{"Strand": "GGGAGUUCUACAGUCCGACGAUCCACAGACAACACGCACCCACACAGACACAGAGGGAAGGGGUUGGGAUGGGGACAGGGUGCACAGCAGGGCGGGGUAGGACCCCCGCCCCUUGGAAUUCUCGGGUGUCAAGG", "log2 enrichment": -1.04}
{"Strand": "GGGAGUUCUACAGUCCGACGAUCUCAAGUCCUGUGCUACACAUCGUAUGUACCGAAUCGGUUUGGAAAGGUUUUUGGAAAGUAUUAUGUUACGCCGUUCGGAUCUGCACUUCCUGGAAUUCUCGGGUGUCAAGG", "log2 enrichment": -1.1}
{"data": "Single results of other studies"}
{"Substance": "PhoQ, residues 284 288 289 292 302 303 SSCCRF", "target": "PhoP, residues 12 14 15 18 19 TTLRV (Escherichia coli, UniProt P23836)", "assay": "Sort-seq, measured: YFP reporter", "test system": "E. coli", "conditions": "PhoQ-PhoP variant library, together with: 10 µM Mg2+", "how to read": "baseline: high Mg2+ state, higher = stronger signaling", "endpoint": "fold induction", "value": 11.4}
